Measurements gathered from unrelated publications.
Each numbered part is a random draw from the data of one study; scales do not carry over between parts.
UniProt Q96NX5, sequence (whole entry, looked up): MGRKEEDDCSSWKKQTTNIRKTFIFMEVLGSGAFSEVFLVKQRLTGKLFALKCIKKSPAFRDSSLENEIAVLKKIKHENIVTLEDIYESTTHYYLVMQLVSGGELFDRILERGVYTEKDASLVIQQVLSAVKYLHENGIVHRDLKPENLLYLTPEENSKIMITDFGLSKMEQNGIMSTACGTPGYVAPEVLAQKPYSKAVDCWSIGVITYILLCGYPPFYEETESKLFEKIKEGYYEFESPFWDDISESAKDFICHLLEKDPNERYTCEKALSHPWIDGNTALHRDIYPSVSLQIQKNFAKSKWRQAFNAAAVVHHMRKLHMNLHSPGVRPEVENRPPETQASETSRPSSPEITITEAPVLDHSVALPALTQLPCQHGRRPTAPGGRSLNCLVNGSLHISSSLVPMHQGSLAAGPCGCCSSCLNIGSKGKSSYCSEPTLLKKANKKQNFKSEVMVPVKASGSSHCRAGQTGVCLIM
UniProt O75116, sequence (whole entry, looked up): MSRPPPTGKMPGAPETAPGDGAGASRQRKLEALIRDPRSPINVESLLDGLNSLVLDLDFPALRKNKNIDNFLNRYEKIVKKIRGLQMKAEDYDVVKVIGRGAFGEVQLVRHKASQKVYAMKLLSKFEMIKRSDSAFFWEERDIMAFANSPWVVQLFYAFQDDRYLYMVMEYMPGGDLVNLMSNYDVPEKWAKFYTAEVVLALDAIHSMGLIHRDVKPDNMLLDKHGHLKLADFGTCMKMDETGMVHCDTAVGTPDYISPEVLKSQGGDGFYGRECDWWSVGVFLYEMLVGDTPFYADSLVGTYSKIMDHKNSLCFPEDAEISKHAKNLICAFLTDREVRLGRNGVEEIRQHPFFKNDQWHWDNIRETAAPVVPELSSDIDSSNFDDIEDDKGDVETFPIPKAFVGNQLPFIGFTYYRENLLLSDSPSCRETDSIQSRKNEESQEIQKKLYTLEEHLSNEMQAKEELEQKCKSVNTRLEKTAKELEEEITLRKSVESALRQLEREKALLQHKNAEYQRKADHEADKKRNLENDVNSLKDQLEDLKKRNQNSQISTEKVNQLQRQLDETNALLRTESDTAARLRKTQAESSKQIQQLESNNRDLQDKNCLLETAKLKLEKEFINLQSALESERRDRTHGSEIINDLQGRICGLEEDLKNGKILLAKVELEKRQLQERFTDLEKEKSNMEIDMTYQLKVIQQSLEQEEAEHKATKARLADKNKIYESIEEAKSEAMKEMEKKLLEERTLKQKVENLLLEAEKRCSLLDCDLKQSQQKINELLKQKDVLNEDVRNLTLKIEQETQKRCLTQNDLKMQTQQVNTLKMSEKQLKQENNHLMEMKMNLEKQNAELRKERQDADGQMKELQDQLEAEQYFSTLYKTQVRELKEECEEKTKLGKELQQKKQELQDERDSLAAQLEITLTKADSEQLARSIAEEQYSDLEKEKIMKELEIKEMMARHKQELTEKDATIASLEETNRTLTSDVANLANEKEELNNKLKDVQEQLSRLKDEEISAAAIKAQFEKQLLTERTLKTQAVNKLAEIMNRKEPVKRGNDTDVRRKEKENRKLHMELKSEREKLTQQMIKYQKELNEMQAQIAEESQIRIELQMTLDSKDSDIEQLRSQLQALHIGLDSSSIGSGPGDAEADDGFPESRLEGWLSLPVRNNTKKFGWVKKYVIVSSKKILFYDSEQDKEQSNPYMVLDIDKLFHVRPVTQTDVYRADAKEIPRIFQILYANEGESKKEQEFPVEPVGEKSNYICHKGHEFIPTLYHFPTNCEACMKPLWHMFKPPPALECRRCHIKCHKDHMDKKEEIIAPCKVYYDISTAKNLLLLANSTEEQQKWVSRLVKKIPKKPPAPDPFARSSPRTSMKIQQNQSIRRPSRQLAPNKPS
UniProt Q15139, sequence (whole entry, looked up): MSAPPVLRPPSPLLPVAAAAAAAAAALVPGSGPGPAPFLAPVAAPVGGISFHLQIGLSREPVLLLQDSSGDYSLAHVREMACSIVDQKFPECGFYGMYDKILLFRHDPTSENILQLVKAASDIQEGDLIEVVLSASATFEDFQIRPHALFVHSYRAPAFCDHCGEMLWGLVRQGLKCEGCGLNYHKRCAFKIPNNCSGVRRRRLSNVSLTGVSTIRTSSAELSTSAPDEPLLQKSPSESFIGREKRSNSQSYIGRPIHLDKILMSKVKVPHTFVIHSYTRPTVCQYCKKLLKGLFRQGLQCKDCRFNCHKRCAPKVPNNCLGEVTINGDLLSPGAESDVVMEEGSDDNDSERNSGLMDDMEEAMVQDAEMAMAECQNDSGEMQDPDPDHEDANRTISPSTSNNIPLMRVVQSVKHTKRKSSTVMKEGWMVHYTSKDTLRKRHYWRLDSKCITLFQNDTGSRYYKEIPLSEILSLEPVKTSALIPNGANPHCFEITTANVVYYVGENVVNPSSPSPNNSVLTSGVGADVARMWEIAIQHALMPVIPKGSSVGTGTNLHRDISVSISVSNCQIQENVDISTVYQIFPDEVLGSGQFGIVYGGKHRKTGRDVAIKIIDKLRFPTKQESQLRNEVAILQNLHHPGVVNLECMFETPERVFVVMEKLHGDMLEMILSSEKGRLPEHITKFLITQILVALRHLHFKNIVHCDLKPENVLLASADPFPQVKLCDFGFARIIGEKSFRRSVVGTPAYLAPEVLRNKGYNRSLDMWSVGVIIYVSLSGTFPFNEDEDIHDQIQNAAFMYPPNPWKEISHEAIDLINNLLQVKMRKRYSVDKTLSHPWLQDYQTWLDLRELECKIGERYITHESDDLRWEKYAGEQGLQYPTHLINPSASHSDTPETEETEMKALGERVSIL
UniProt Q9Y616, sequence (whole entry, looked up): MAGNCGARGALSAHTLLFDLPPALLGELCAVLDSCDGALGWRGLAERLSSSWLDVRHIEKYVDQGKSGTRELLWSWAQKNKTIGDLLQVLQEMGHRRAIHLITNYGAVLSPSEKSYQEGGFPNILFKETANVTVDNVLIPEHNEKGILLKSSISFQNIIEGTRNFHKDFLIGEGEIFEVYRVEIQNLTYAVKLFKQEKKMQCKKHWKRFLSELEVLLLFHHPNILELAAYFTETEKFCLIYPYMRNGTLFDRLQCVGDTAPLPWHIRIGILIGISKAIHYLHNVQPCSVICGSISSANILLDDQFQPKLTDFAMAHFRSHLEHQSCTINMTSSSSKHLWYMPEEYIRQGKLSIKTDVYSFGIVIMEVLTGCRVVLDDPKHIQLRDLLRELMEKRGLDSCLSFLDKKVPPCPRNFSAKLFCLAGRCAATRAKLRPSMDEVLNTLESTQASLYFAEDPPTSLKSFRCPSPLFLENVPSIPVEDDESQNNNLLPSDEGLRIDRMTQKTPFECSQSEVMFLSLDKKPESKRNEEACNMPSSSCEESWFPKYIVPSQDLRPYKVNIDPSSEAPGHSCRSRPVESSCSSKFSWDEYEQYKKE
UniProt Q9Y2U5, sequence (whole entry, looked up): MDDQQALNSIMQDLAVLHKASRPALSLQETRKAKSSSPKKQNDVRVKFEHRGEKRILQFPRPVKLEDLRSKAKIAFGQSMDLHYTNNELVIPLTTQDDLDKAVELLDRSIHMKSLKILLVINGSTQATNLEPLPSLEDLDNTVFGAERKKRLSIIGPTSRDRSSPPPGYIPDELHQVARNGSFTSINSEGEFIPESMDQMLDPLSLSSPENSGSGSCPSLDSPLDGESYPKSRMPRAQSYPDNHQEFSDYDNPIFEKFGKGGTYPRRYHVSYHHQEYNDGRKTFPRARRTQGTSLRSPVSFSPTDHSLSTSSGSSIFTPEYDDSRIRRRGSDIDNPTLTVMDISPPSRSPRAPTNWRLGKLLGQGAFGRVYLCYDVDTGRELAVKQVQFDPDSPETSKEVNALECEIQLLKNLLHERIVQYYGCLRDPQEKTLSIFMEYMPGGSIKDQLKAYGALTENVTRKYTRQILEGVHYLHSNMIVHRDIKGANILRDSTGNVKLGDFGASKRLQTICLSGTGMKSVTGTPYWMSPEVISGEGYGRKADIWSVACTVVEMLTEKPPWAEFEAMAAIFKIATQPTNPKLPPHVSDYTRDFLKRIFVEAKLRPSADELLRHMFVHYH
UniProt P54764, sequence (whole entry, looked up): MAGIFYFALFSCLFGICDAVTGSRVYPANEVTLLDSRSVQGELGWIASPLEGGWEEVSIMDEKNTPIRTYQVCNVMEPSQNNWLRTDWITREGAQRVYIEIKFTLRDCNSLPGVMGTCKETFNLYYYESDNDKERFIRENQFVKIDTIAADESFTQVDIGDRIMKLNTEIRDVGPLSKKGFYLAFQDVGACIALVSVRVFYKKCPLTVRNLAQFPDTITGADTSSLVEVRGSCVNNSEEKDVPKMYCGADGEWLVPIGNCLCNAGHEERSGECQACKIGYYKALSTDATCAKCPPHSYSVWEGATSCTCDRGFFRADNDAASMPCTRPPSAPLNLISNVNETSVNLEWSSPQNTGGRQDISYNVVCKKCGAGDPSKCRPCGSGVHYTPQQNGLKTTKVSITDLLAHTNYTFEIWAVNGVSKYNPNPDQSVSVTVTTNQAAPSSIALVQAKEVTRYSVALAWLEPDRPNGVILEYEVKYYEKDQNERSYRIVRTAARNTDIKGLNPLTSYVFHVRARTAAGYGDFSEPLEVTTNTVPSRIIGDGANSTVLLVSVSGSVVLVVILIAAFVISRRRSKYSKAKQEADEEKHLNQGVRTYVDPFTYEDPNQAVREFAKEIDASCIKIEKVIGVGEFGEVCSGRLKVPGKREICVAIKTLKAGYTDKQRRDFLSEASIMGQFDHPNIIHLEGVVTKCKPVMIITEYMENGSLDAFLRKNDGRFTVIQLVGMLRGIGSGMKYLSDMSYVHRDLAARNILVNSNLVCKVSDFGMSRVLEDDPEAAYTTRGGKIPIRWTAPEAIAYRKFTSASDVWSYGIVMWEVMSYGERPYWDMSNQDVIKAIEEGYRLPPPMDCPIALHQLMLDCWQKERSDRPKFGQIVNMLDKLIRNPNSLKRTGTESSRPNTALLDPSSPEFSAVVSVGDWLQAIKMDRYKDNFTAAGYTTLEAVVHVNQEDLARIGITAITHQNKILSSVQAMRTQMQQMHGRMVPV

Series 1
Target: Cellular tumor antigen p53, full length (TP53, Homo sapiens, UniProt P04637, residues 1-393)
Method: protein-binding microarray
Molecule type: hairpin DNA
Matrix: in vitro
Tested at: not given
Setting: whole hairpin DNA, median over replicate spots
Baseline: not given
Direction: higher = stronger binding
Oligonucleotide	median fluorescence [a.u.]
CGGACGTGCCCGGGCATGTCTCCTGACATGCCCGGGCACGTCCGACACTC	15600
CCACACGTGGAGGCATGCCTTCCTAGGCATGCCTCCACGTGTGGACACTC	8520
CGGACATGCCCGGGCTTGTCTCCTGACAAGCCCGGGCATGTCCGACACTC	15300
CGGACATGCCCGGCGATGTCTCCTGACATCGCCGGGCATGTCCGACACTC (5mC at 14 30)	9510
CCACACGTGGTAGCATGCCTTCCTAGGCATGCTACCACGTGTGGACACTC	6630
CGGACATGCCCGGGAATGTCTCCTGACATTCCCGGGCATGTCCGACACTC	8380
CCACACGTGCGGGCATGCCTTCCTAGGCATGCCCGCACGTGTGGACACTC (5mC at 34)	9780
CCACACGCGGTGGCATGCCTTCCTAGGCATGCCACCGCGTGTGGACACTC (5mC at 8 36)	6750

Series 2
Structure (SMILES): Cc1ccc(NC(=O)c2ccc(CN3CCN(C)CC3)cc2)cc1Nc1nccc(-c2cccnc2)n1
Effect on: enzyme activity
Action: inhibitor
Tested at: 0.5 µM
Baseline: control
target	remaining activity
Aurora kinase A (AURKA, Homo sapiens, UniProt O14965)	98.2%
DMPK (Homo sapiens, UniProt Q09013)	98.2%
MAP3K8 (Homo sapiens, UniProt P41279)	92.7%
CSNK2A2 (Homo sapiens, UniProt P19784)	94.5%
SLK (Homo sapiens, UniProt Q9H2G2)	104%
BRSK1 (Homo sapiens, UniProt Q8TDC3)	98.2%
ROCK2 (Homo sapiens, UniProt O75116)	103%
HIPK3 (Homo sapiens, UniProt Q9H422)	98.9%
MAP3K2 (Homo sapiens, UniProt Q9Y2U5)	110%
ROS1 (Homo sapiens, UniProt P08922)	85.9%
GRK5 (Homo sapiens, UniProt P34947)	95%
PTK2B (Homo sapiens, UniProt Q14289)	101%
CAMK1G (Homo sapiens, UniProt Q96NX5)	98.4%
PKN2 (Homo sapiens, UniProt Q16513)	96.9%
MAPK10 (Homo sapiens, UniProt P53779)	90.8%
NTRK3 (Homo sapiens, UniProt Q16288)	95.2%
CDK7 (Homo sapiens, UniProt P50613)	101%
PRKD1 (Homo sapiens, UniProt Q15139)	97.9%
DYRK4 (Homo sapiens, UniProt Q9NR20)	104%

Series 3
SMILES: CC(C)CC(=O)N1CCc2nc(-c3ccc(Br)cc3)nc(N(C)Cc3ccccc3)c2C1
Effect on: cell-free assay
Method: competition with immobilised ligand
Tested at: 0.1 µM
target	remaining binding
GAK (Homo sapiens, UniProt O14976)	100%
IRAK3 (Homo sapiens, UniProt Q9Y616)	100%
EPHA4 (Homo sapiens, UniProt P54764)	100%
CIT (Homo sapiens, UniProt O14578)	100%
PRKACA (Homo sapiens, UniProt P17612)	89%
Non-receptor tyrosine-protein kinase TYK2, JH2 (TYK2, Homo sapiens, UniProt P29597)	100%
CSNK1D (Homo sapiens, UniProt P48730)	83%
ROCK2 (Homo sapiens, UniProt O75116)	74%
STK32A (Homo sapiens, UniProt Q8WU08)	94%
MAP3K11 (Homo sapiens, UniProt Q16584)	100%
PRKCQ (Homo sapiens, UniProt Q04759)	100%
ULK2 (Homo sapiens, UniProt Q8IYT8)	89%
Tyrosine-protein kinase ABL1, non-phosphorylated (ABL1, Homo sapiens, UniProt P00519, F317L)	100%
PNCK (Homo sapiens, UniProt Q6P2M8)	100%
FER (Homo sapiens, UniProt P16591)	100%
STK38L (Homo sapiens, UniProt Q9Y2H1)	95%
SRMS (Homo sapiens, UniProt Q9H3Y6)	100%
Tyrosine-protein kinase JAK1, JH1 (JAK1, Homo sapiens, UniProt P23458)	100%
PRKCD (Homo sapiens, UniProt Q05655)	100%
CAMK1G (Homo sapiens, UniProt Q96NX5)	100%
FLT3 (Homo sapiens, UniProt P36888, D835V)	95%
CAMKK1 (Homo sapiens, UniProt Q8N5S9)	100%
KIT (Homo sapiens, UniProt P10721, L576P)	94%
NEK4 (Homo sapiens, UniProt P51957)	100%

Series 4
Target: Transcriptional repressor CTCF (CTCF, Homo sapiens, UniProt P49711, residues 1-727, full length assumed)
Method: protein-binding microarray
Molecule type: double-stranded DNA, one strand shown
Matrix: in vitro
Tested at: not given
Setting: k-mer, scored over probes, only values ≥0.25
Direction: higher = stronger binding
Residues (chain): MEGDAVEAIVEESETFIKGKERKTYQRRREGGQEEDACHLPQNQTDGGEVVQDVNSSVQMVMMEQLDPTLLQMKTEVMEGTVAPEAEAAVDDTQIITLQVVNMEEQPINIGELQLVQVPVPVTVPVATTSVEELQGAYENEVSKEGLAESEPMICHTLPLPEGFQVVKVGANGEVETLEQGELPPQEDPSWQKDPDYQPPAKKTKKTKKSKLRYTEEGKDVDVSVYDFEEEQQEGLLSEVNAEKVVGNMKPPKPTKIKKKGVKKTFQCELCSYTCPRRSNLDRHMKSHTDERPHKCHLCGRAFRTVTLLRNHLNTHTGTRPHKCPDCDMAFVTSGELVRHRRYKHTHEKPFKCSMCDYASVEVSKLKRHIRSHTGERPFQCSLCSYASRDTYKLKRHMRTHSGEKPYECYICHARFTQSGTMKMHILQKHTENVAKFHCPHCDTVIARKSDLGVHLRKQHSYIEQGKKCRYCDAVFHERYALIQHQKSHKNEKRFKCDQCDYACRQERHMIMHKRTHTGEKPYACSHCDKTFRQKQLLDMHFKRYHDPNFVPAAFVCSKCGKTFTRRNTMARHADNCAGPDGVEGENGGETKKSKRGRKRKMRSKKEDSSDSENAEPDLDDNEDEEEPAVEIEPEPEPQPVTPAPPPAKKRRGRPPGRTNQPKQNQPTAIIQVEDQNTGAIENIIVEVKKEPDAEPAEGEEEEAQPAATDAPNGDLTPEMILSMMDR
Oligonucleotide	E-score
ACAAATAC	0.274
AGTACTAC	0.251
ATAATGCG	0.375
TACGATAA	0.306
AAATATGT	0.32
CATATTAA	0.351
GCATGCGA	0.265
CGCATTAC	0.302

Excerpt of the above (series 2):
target	remaining activity
GRK5 (Homo sapiens, UniProt P34947)	95%
PTK2B (Homo sapiens, UniProt Q14289)	101%
CAMK1G (Homo sapiens, UniProt Q96NX5)	98.4%
PKN2 (Homo sapiens, UniProt Q16513)	96.9%
MAPK10 (Homo sapiens, UniProt P53779)	90.8%
NTRK3 (Homo sapiens, UniProt Q16288)	95.2%
CDK7 (Homo sapiens, UniProt P50613)	101%
PRKD1 (Homo sapiens, UniProt Q15139)	97.9%
